Results gathered from unrelated publications.
Parts stem from different laboratories: compare values within a part only.

Series 1 — technique: protein-binding microarray; form: hairpin DNA; medium: in vitro; concentration: not given; reference: not given; reading: higher = stronger binding
Target: Hepatocyte nuclear factor 3-beta, forkhead domain (FOXA2, Homo sapiens, UniProt Q9Y261, residues 142-269)
Setting: whole hairpin DNA, median over replicate spots
Target sequence (chain): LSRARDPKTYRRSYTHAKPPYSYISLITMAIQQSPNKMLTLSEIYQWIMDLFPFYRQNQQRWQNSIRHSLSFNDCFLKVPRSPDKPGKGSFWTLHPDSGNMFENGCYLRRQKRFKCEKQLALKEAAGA
Strand | median fluorescence [a.u.]
GAGGCCATGCAAACAACGCCTCCTGGCGTTGTTTGCATGGCCTCACACTC (5mC at 14) | 3780
GAGGCCCTGTAAACAACGCCTCCTGGCGTTGTTTACAGGGCCTCACACTC | 3680
GAGGCCATGTAAACACCGCCTCCTGGCGGTGTTTACATGGCCTCACACTC | 4250
GAGGCCATGTAAACGACGCCTCCTGGCGTCGTTTACATGGCCTCACACTC (5mC at 30) | 3740
GAGGCCATGCAACGAACGCCTCCTGGCGTTCGTTGCATGGCCTCACACTC | 3420
GAGGCCATCGAAACAACGCCTCCTGGCGTTGTTTCGATGGCCTCACACTC (5mC at 35) | 3130
GAGGCCCTGCAAACAACGCCTCCTGGCGTTGTTTGCAGGGCCTCACACTC | 3420
GAGGCCATGTCGACAACGCCTCCTGGCGTTGTCGACATGGCCTCACACTC | 3510
GAGGCCAGGTAACCAACGCCTCCTGGCGTTGGTTACCTGGCCTCACACTC (5mC at 37) | 3250
GAGGCCATGTAACCACGGCCTCCTGGCCGTGGTTACATGGCCTCACACTC (5mC at 16) | 2990
GAGGCCATGCAAACAAGGCCTCCTGGCCTTGTTTGCATGGCCTCACACTC (5mC at 28) | 3510
GAGGCCAGGTAAACAACGCCTCCTGGCGTTGTTTACCTGGCCTCACACTC (5mC at 37) | 4000
GAGGCCATCGAAACAACGCCTCCTGGCGTTGTTTCGATGGCCTCACACTC (5mC at 9) | 3200
GAGGCCATGCAAACACCGCCTCCTGGCGGTGTTTGCATGGCCTCACACTC | 3650
GAGGCCATGTAAGCAACGCCTCCTGGCGTTGCTTACATGGCCTCACACTC (5mC at 32) | 6490
GAGGCCATGCGACCAACGCCTCCTGGCGTTGGTCGCATGGCCTCACACTC | 3490
GAGGCCATGTAACCAAGGCCTCCTGGCCTTGGTTACATGGCCTCACACTC | 2790
GAGGCCATGTAACCCGCGCCTCCTGGCGCGGGTTACATGGCCTCACACTC (5mC at 29) | 3290
GAGGCCATGTAAACCACGCCTCCTGGCGTGGTTTACATGGCCTCACACTC | 3170
GAGGCCATCGAAACAACGCCTCCTGGCGTTGTTTCGATGGCCTCACACTC | 3230

Series 2 — technique: RNA Bind-n-Seq; form: RNA; medium: in vitro; concentration: 200 nM; setting: whole 134-nt RNA, ends assumed; added: 150 mM LiCl; reference: input library; reading: higher = stronger binding; all molecules: 7-deaza-guanosine replaces G
Target: Ras GTPase-activating protein-binding protein 1, full length (G3BP1, Homo sapiens, UniProt Q13283)
Chain of UniProt Q13283 (whole entry, looked up): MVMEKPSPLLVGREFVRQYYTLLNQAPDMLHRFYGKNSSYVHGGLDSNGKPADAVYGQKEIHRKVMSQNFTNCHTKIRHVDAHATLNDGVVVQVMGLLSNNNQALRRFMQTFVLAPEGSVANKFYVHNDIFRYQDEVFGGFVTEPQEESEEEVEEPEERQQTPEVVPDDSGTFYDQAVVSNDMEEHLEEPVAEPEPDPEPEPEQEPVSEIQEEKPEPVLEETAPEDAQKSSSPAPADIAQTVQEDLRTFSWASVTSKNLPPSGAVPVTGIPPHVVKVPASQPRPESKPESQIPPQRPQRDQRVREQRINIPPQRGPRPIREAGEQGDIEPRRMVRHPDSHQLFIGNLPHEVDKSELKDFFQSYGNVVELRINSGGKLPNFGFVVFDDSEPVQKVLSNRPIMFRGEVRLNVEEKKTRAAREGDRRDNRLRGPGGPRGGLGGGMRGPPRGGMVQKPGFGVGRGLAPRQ
All sequences stand within: GGGAGUUCUACAGUCCGACGAUC … UGGAAUUCUCGGGUGUCAAGG
Strand | log2 enrichment
AAGUCCUGUGCUACACAUCGUAUGUACCGAAUCGGAAAAAGGAAAAAGGUUUUUGGAAAGUAUUAUGUUACGCCGUUCGGAUCUGCACUU | -1.74
UGGCCCUGGUGGCAUGCGGGGAGGAAGAGGGGGCCUCAUGGAUCGUGGUGGUCCCGGUGGAAUGUUCAGAGGUGGCCGUGGUGGAGACAG | 0.779
UGGCCCUGGUGGCAUGCGGGGAGGAAGAGGUGGCCUCAUGGAUCGUGGUGGUCCCGGUGGAAUGUUCAGAGGUGGCCGUGGUCGAGACAG | -0.22
UCAAGUCCUGUGCUACACAUCGUAUGUACCGAAUCGGGUUGGUUGGGGUUGGGGAAAGUAUUAUGUUACGCCGUUCGGAUCUGCACUUCC | -0.545
GCAGGAAGUAAAAACAUAUGGAAAUGCUUCGGAUAGUGGCAGGGGUGGGGGUUGCUAAGGAAAGGGUGGGAUGGGAGUGGGUAAAGAGUU | -0.11
AGUCCUGUGCUACACAUCGUAUGUACCGAAUCGGCCCCCGGGCCCCCGGCCCCCGGGAAAGUAUUAUGUUACGCCGUUCGGAUCUGCACU | -0.935
AGUCCUGUGCUACACAUCGUAUGUACCGAAUCGGGAGGGUUUUUGGGUUUUUUUGGGAAAGUAUUAUGUUACGCCGUUCGGAUCUGCACU | -0.585
GCAGGAAGUAAAAACAAAUGGAAAUGCUUCGGAUAGUGGCAGGGGUGGGGGUUGCUAAAGAAAGGGUGGGAUGGGAGUGGGUAAAGAGUU | 0.487
GCAGGACGUAAAAACAAAUGGAAAUGCUUCGGAUAGUGGCAGGGGUGGGGGUUGCUAAGGAAAGGGUGGGAUGGGAGUGGGUAAAGAGUU | -0.457
GCAGGAAGUAAAAACAAAUGGAAAUGCUUCGGAUAGUGGCAGGGGUGGGGGUUGCUAAGGAAAGGGUGAGAUGGGAGUGGGUAAAGAGUU | 0.0181
CCUCAAGUCCUGUGCUACACAUCGUAUGUACCGAAUCGGUGGAGGUUUUUGGAAAGUAUUAUGUUACGCCGUUCGGAUCUGCACUUCCAG | 0.431

Series 3 — technique: RNA Bind-n-Seq; form: RNA; medium: in vitro; concentration: not given; setting: RNA with constant flanks, ends assumed; reference: input RNA pool; reading: higher = stronger binding
Target: RING finger protein unkempt homolog, zinc fingers 1-6, GST-SBP tag (UNK, Homo sapiens, UniProt Q9C0B0, residues 30-357)
Chain of UniProt Q9C0B0 (30-357, looked up): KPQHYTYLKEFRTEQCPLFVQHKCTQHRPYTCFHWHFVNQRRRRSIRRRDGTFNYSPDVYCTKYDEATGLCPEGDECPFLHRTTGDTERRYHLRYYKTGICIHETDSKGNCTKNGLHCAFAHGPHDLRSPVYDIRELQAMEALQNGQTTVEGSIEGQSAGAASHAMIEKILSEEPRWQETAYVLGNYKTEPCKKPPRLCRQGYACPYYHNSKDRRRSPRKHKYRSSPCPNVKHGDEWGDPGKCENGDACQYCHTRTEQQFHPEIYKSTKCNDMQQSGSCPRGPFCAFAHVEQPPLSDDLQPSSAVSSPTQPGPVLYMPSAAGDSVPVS
All sequences stand within: GGGAGUUCUACAGUCCGACGAUC … CAACAGAGGAUUGAGCAUCA
Strand | bound/input enrichment [ratio]
CUGAGGAACAAUCUCCGCAGCAUAGAGUGGGAUCUGGAGGACCUCGAUGAAACCAUCAGCACCGUUGAAGCAAAUCCUAGAAAAUUCAACUUGGAUGCAACUGAAUUGAGCAUAAGAAAA | 0.302
AAACAUAACAUAUCUUUAAAGCUUUUCUAUCUUCUUUUGAAAUUUGGACCAAUAAAAUUCCCGGUGAUAUGGAGGAUUGUAUUGCUCAACUUCUCAUAGUGAGACAACACGUAACAAAAC | 2.75
AAAAGAGCUAAUCCUCAAGUCGGCGUGGCUUUUCCUCAUAUCAAGCAUAACUAUGAGUGUUCCGUGUAUGUGCAGCUGCCUUUCAUGGAAGACUUGCGGCAAUACAUGUUUUCAUCCUUG | 0.0377
UUUACAACGCACCAAGAACAUUCUAUUCGCAGAAAUUUCUUAAAAACAGGUACUAAAUUCCGCAACUUUAUUCACGAAGAACACCAGUCCAAUGGGGGUGCUCUUGUCCUUCAUGCAUAC | 0.233
CUCCAGACACAAGUGGCUGAGAUGUCCCGAGUCAUACGUGAUCUGCAGUCCAGGAGUUGUUUCCGAUUUCAUCAUUCUAGGCCAAGUGAGAGCUCGUCAGUUCCUUGGGAUAUCUCCAGC | 0.278
CUUGAACCUAACAAGUCCAUCUUCAAGCAAAUGAAAACUCAUCCACCAUACACCAUGUGCUUCCGAGUGAAAUUCUACCCACAUGAACCCUUGAAGAUUAAAGAAGAGCUCACAAGAUAC | 0.134
AAGACUGUCGACCUAAAGCCUGACUGGGGCAAGGGCUAUUCACGAAAAGCAGCAGCUCCCGAGUUCUUAAACCGCUUUGAAGAAGCCAAGCGAACCUAUGAGGAGGGCUUAAAACACGAG | 0.166
GCCAUGGACACAGAAUUUCCAGGUGUUGUGGUGCGACCAAUUGGUGAAUUUCGUAGUUCCACCGAUUACCAAUAUCAGCUUCUGCGGUGCAAUGUUGACCUUUUAAAAAUUAUCCAGCUG | 0.125
GCUGAUUUUGAGAAGGUUUUCUCUAUUGGACCAGUAUUCAGAGCGGAAGACUCUAAUACCCACCGACAUCUAACUGAGUUUGUUGGUUUGGACAUUGAAAUGGCUUUUAAUUACCAUUAC | 0.116
GGGCGCGGCGUCCGGGUGGCGCUCGCCACUCGGGCGGUGGCGCGGGCGCCCAGGGCAGACACCCGGGUAAUCCGGAGGCGCGGCCCUGGAAUUAGACCGACAGCGGGGCUGAGGCUGAGG | 0.747
AACUUCUCUGACUACAUCCGUGGAGGCAUCGUCAGUCAGGUCAAAGUACCGAAAAAGAUCCGUUUUAAAUCCUUGCCAGCAUCACUGGUAGAGCCUGACUUUGUGAUGACUGACUUUGCC | 0.0927

Series 4 — technique: protein-binding microarray; form: double-stranded DNA, one strand shown; medium: in vitro; concentration: 0.8 µM; setting: whole 60-bp probe, no competitor; reading: higher = stronger binding; all sequences stand within: … GTCTTGATTCGCTTGACGCTGCTG
Target: Centromere-binding protein 1, full length, N-terminal tag (CBF1, Saccharomyces cerevisiae, UniProt P17106, residues 1-351)
Chain of UniProt P17106 (whole entry, looked up): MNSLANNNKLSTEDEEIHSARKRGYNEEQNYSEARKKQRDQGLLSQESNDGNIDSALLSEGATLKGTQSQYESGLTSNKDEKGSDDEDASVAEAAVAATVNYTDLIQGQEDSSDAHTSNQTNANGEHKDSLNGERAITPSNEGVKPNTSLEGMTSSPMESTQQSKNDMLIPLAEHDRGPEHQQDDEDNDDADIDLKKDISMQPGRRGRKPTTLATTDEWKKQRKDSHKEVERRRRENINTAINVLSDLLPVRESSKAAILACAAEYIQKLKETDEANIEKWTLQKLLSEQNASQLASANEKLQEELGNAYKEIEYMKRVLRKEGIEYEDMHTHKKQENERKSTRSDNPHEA
Strand | fluorescence intensity
CTATCATGAACGGTTTACGTGACTATTTTCACTTTC | 651 a.u.
CCTAACTACTATAGTGATGCAGTATAGCTTCGTACA | 531 a.u.
TGTACGAAGCTATTTGAGGTGACTATAGTAGTTAGG | 519 a.u.
CTAAGTTTTTTTCAGGTGATTATTTTACCGGGCTTC | 700 a.u.
GAAAACACCCGAAGTTGCGTGTCCCCCTCACGTTAG | 509 a.u.
CTAGAATAGACCGATAAGGTCACCTGTTAGTAATTC | 3320 a.u.
GAATTAGGAGAGCGTGGTGTTCTCATCCTACTATAG | 599 a.u.
CTATCGTGTCCCAGCCGCACGCCACATCCACCATTC | 515 a.u.
CTACCCCACTTCCATCACGTCCATACCAGGTGCTTC | 551 a.u.
GAATACAACCCCGAACCCGTGCGTGGGCTATTCTAG | 569 a.u.
GAAACAGGCTACAACCACCACCTTCAATGAAGATAG | 482 a.u.
CTATGGATCAACAAGCACATGTTTTTCTAATTATTC | 752 a.u.
CTATGTAATTTTTGGCATGTGCTATTGTATGAATTC | 1020 a.u.
CTATATTACAAGTGTGTCACCATTTCCGGCCCATTC | 545 a.u.
GAATGACCATGACTTCTCGTGCACCTTACAGGATAG | 603 a.u.
CTAGCAGATTATAAATGCGTGGTGTAAAATTCTTTC | 560 a.u.
GAATTTTATAAACCTCCCACCACCTGATAATCTTAG | 876 a.u.
GAATTTGGGTCACCGTACGTGAACATTGGTTTGTAG | 585 a.u.
GAACTTCATCAAACAAACGTGCGCTGTTTGACTTAG | 570 a.u.
CTATATATATGCATACACGTTATTGAAGTTATATTC | 617 a.u.
GAAAAAATAAAACCTCATATGATTTACTTTATTTAG | 523 a.u.
TGTACGAAGCTATGTCACGTGTATATAGTAGTTAGG | 15700 a.u.
GAAATTTTTAAGCAGCATGTGATAATATTCAGGTAG | 2190 a.u.
GAAAGAGAAGCGAATGGTGTGATGAAATCGCGTTAG | 528 a.u.
